Assay results collected from several papers.
Compare with care: the assays were run in different laboratories. Numbers after ± are the reported error.
BCHE: Cholinesterase (BCHE, Equus caballus, UniProt P81908)
Sequence of UniProt P81908 (whole entry, looked up): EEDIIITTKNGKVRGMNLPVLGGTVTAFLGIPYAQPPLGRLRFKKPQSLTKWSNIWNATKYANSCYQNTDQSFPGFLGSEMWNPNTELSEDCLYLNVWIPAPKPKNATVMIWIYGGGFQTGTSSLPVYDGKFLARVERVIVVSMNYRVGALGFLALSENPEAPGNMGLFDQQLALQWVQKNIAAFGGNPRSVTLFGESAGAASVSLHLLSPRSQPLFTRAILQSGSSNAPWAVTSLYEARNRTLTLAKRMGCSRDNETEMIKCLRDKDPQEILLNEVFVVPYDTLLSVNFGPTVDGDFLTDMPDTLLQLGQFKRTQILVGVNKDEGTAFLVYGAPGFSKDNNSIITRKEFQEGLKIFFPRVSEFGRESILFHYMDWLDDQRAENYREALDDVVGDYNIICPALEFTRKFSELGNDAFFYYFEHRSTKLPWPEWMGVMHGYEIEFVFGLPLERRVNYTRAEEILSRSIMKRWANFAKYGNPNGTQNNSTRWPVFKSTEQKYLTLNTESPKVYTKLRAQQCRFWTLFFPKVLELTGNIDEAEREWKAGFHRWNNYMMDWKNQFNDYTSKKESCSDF
AKR1C3: Aldo-keto reductase family 1 member C3 (AKR1C3, Homo sapiens, UniProt P42330)
Sequence of UniProt P42330 (whole entry, looked up): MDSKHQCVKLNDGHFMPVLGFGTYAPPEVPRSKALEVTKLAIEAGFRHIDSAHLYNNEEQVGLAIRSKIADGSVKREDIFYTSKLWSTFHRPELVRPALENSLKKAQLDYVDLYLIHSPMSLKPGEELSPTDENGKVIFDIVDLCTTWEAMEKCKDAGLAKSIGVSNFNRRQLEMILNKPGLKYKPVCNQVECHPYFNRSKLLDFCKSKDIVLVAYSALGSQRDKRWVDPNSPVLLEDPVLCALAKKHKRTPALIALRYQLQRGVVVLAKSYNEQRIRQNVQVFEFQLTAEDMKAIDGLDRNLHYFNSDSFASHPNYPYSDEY
Sequence of UniProt Q96RI1 (whole entry, looked up): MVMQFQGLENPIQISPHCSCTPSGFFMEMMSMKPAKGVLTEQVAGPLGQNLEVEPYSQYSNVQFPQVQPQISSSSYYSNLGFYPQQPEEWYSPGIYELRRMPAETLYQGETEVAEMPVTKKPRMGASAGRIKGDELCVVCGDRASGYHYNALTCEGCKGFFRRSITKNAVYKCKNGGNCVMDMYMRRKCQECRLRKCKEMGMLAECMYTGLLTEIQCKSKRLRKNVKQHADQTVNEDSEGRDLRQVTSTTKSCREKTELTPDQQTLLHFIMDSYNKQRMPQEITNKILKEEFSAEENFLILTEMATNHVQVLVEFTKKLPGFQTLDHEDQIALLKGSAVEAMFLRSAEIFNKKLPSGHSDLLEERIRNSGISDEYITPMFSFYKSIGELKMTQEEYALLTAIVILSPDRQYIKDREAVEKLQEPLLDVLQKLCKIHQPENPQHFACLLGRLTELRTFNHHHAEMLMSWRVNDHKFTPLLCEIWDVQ
Sequence of UniProt Q07002 (whole entry, looked up): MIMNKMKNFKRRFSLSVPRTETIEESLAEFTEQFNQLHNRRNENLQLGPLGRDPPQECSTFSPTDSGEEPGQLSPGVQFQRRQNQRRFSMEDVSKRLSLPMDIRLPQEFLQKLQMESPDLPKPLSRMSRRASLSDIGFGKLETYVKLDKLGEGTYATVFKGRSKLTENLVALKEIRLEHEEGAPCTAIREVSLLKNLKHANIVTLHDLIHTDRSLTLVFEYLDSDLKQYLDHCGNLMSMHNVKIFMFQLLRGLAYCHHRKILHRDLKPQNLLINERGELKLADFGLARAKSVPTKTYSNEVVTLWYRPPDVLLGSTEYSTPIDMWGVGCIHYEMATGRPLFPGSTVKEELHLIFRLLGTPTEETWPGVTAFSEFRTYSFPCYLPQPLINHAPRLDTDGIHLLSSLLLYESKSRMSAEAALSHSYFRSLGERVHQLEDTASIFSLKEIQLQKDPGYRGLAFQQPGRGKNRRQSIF
Sequence of UniProt P29350 (whole entry, looked up): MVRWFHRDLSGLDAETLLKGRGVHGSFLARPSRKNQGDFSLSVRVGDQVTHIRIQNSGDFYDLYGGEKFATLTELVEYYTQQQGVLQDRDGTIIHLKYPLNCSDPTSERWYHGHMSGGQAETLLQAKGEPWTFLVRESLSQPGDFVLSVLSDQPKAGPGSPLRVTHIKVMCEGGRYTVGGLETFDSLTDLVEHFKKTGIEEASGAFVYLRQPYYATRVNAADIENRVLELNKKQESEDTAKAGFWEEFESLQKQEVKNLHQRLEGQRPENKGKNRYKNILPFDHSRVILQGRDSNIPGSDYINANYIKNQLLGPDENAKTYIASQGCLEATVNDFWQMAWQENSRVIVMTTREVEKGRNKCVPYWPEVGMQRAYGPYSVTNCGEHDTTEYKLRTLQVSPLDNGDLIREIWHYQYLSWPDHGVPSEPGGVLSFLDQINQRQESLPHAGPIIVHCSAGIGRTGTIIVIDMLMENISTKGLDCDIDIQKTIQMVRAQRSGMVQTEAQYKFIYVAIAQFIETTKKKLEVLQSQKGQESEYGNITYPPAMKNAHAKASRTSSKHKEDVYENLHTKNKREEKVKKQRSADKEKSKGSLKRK
Sequence of UniProt P07711 (whole entry, looked up): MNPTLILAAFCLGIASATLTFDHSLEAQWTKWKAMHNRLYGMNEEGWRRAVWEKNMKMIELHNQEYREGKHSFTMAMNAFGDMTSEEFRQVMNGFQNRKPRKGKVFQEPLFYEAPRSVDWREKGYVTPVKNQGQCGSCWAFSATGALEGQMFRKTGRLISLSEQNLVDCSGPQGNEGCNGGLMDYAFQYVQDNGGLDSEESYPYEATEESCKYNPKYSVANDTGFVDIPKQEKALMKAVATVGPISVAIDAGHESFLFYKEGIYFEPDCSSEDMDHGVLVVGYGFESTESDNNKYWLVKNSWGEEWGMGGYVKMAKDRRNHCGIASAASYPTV

SMILES	target	assay	system	conditions	inhibition
CSCCNC(=O)CCC(C)C1CCC2C3C(O)CC4CC(O)CCC4(C)C3CCC12C (stereo not shown)	Bile acid receptor (NR1H4, Homo sapiens, UniProt Q96RI1)	receptor activation, antagonist		concentration not given, together with: CDCA 25 µM	inhibited
O=C(O)c1ccccc1-c1c2ccc(=O)c([As]3SCCS3)c-2oc2c([As]3SCCS3)c(O)ccc12	PTPN6 (Homo sapiens, UniProt P29350)	enzyme activity, inhibitor, absorbance		1 µM	> 50%
COC(=O)c1ccc(NC(=O)c2cccc(CC3CCCCC3)n2)c(Cc2ccccc2)c1	Capsid scaffolding protein, protease domain (Human herpesvirus 8 type P, UniProt Q2HRB6)	enzyme activity, inhibitor		concentration not given, pH 8	inactive
COC(=O)C(=O)/C(=C\c1ccc(-c2ccccc2[N+](=O)[O-])o1)C(=O)c1ccccc1	Procathepsin L (CTSL, Homo sapiens, UniProt P07711)	enzyme activity, inhibitor		50 µM	26.6%
CC(=O)NC(Cc1ccc(Br)c(Cl)c1)C(=O)N[C@@H](C)C(=O)N1CCC[C@H]1C(=O)N1CCC[C@H]1C(=O)N[C@@H](CCC(=O)O)C(=O)N[C@@H](Cc1c[nH]cn1)C(=O)N[C@@H](CO)C(=O)N[C@H](C(=O)N[C@@H](C)C(N)=O)[C@@H](C)OP(=O)(O)O (stereo partly shown)	CDK18 (Homo sapiens, UniProt Q07002)	enzyme activity, inhibitor		10 µM	5.59%
Fc1ccc(Nc2c3c(nc4ccccc24)CCCC3)cc1	BCHE	enzyme activity, inhibitor		50 µM	-159%
CCCCCCCCCCOCc1cn(CC2=CC[C@@H]3C(C(=O)OC)=CO[C@@H](OC(C)=O)[C@H]23)nn1	BCHE	inhibitor	horse serum BuChE	10000 µM	23.68 ± 0.17%
CC[C@H](CO)Nc1nc(NCc2ccc(C)s2)n2ncc(C(C)C)c2n1	CDK2 (Homo sapiens, UniProt P24941)	enzyme activity		2 µM	75%
COc1ccc(Nc2c3c(nc4ccc(Cl)cc24)CCCC3)nc1	BCHE	enzyme activity, inhibitor		50 µM	-63.8%
C[C@@]12CC[C@@H]3c4ccc(O)c(Cl)c4CC[C@H]3[C@@H]1CCC2=O	AKR1C3	enzyme activity, inhibitor, absorbance		100 µM, pH 9	43.6%
O=C1[O][Pt]2([OH])([OH])([NH]C3CCCCC3[NH]2)[O]C1=O (stereo not shown)	thioredoxin reductase			1 µM	13.5%
C[C@@]12CC[C@@H]3c4cc(Cl)c(O)c(Cl)c4CC[C@H]3[C@@H]1CCC2=O	AKR1C3	enzyme activity, inhibitor, absorbance		10 µM, pH 9	69.9%
CC1(C)SC(C(CCc2ccccc2)B(O)O)N[C@H]1C(=O)O (stereo partly shown)	Beta-lactamase TEM (bla, Escherichia coli, UniProt P62593, Q37K)	enzyme activity, inhibitor		concentration not given, 24 h	no inhibition

Excerpt of the above:
SMILES	target	assay	system	conditions	inhibition
COC(=O)c1ccc(NC(=O)c2cccc(CC3CCCCC3)n2)c(Cc2ccccc2)c1	Capsid scaffolding protein, protease domain (Human herpesvirus 8 type P, UniProt Q2HRB6)	enzyme activity, inhibitor		concentration not given, pH 8	inactive
